Assay results pooled from the literature.
Numbered parts are unrelated; each lists some results of a single study. Changes are numbered by the printed parent chain.

Series 1
Target: ABI1, truncated, D143A, DHFR fusion (Arabidopsis thaliana)
Technique: DHFR PCA, deep sequencing
Matrix: yeast
Notes: methotrexate growth selection, single substitutions
Added: (+)-ABA 17 µM
Relative to: wild-type fitted maximum
Reading: higher = stronger binding
Measurement: relative binding score
Parent: PYL1, truncated, DHFR fusion (Arabidopsis thaliana); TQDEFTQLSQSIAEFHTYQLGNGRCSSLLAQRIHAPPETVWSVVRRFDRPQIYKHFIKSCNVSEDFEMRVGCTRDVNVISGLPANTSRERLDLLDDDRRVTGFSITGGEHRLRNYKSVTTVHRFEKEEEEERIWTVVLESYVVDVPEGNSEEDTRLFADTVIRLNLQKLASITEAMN
S42C: 56.4%
E64W: 65.3%
E14M: 67.2%
E151K: 86.8%
A175S: 90.8%
F124G: 79.8%
P37L: 50.7%
D48A: 20.5%

Series 2
Target: CCNB3, cyclin fold, Cln2 fusion (human)
Technique: yeast growth competition, sequencing
Matrix: yeast
Notes: weak parent motif
Relative to: not given
Reading: higher = stronger binding
Measurement: normalised enrichment score
Parent: PKN2 docking peptide (human); VSAVQKLDFSDTM
VSAVQKLDFSDTY [M13Y]: 0.211
VSAVQKLDFSDYM [T12Y]: 1.02
VSAVQFLDFSDTM [K6F]: -0.0726
FSAVQKLDFSDTM [V1F]: 0.748
VSAVQILDFSDTM [K6I]: 0.246
VSALQKLDFSDTM [V4L]: 0.595

Series 3
Target: Fragile X messenger ribonucleoprotein 1, C-terminal low-complexity region (Fmr1, Mus musculus, UniProt P35922)
Technique: RNA Bind-n-Seq
Form: RNA
Matrix: in vitro
Tested at: 200 nM
Notes: whole 134-nt RNA, ends assumed
Added: 150 mM LiCl
Relative to: input library
Reading: higher = stronger binding
Measurement: log2 enrichment
Each molecule: 7-deaza-guanosine replaces G
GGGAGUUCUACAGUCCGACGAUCGCAGGAAGUAAAAACAAAUGGAAAUGCCUCGGAUAGUGGCAGGGGUGGGGGUUGCUAAGGAAAGGGUGGGAUGGGAGUGGGUAAAGAGUUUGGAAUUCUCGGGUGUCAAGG: 1.8
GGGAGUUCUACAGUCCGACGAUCCCUCAAGUCCUGUGCUACACAUCGUAUGUACCGAAUCGGAGGAGGUUUUUGGAAAGUAUUAUGUUACGCCGUUCGGAUCUGCACUUCCAGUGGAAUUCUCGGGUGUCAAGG: -0.408
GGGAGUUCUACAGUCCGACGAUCUAACUUUAGAGGAGGAUCUGAUGGAUAUGGCAGUGGACGUGGAUUUGGGGAUGGCUAUAAUGGGUAUGGAGGAGGACCUGGAGAUGGCAAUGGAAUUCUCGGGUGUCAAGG: 0.035
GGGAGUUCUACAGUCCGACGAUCAAGUCCUGUGCUACACAUCGUAUGUACCGAAUCGGGGUUUUGGGUUUUGGUUUUGGAAAGUAUUAUGUUACGCCGUUCGGAUCUGCACUUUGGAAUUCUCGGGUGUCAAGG: -2.19
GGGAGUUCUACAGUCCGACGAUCUCCUGUGCUACACAUCGUAUGUACCGAAUCGGGUUUUUUGGUUUUUUGGUUUUUUGGGGAAAGUAUUAUGUUACGCCGUUCGGAUCUGCAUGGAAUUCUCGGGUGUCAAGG: -1.34
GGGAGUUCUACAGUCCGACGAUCUCAAGUCCUGUGCUACACAUCGUAUGUACCGAAUCGGAAAGGUUUGGUUUUUGGAAAGUAUUAUGUUACGCCGUUCGGAUCUGCACUUCCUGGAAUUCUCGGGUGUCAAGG: -0.976
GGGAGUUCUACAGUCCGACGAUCAGUCCUGUGCUACACAUCGUAUGUACCGAAUCGGGGAAAAAGGAAAAAGGGAAAAAGGAAAGUAUUAUGUUACGCCGUUCGGAUCUGCACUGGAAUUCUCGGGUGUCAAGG: -0.718
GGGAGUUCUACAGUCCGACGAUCAGUCCUGUGCUACACAUCGUAUGUACCGAAUCAAAUUUUUAAAUUUUUAAACCCAAAAAAGUAUUAUGUUACGCCGUUCGGAUCUGCACUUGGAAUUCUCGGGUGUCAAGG: -0.536

Single results of other studies
PhoQ, residues 284 288 289 292 302 303 AAQSYM — fold induction (PhoP, residues 12 14 15 18 19 YHFSH (Escherichia coli, UniProt P23836); Sort-seq, refers to: YFP reporter; E. coli; PhoQ-PhoP variant library, added: 10 µM Mg2+; relative to: high Mg2+ state, higher = stronger signaling): 1.45

Excerpt of the above (series 2):
VSAVQFLDFSDTM [K6F]: -0.0726
VSALQKLDFSDTM [V4L]: 0.595
